Results of several laboratories.
Every numbered part comes from another study and shows a few of its results, in no order.
Sequence of UniProt Q9NYL2 (whole entry, looked up): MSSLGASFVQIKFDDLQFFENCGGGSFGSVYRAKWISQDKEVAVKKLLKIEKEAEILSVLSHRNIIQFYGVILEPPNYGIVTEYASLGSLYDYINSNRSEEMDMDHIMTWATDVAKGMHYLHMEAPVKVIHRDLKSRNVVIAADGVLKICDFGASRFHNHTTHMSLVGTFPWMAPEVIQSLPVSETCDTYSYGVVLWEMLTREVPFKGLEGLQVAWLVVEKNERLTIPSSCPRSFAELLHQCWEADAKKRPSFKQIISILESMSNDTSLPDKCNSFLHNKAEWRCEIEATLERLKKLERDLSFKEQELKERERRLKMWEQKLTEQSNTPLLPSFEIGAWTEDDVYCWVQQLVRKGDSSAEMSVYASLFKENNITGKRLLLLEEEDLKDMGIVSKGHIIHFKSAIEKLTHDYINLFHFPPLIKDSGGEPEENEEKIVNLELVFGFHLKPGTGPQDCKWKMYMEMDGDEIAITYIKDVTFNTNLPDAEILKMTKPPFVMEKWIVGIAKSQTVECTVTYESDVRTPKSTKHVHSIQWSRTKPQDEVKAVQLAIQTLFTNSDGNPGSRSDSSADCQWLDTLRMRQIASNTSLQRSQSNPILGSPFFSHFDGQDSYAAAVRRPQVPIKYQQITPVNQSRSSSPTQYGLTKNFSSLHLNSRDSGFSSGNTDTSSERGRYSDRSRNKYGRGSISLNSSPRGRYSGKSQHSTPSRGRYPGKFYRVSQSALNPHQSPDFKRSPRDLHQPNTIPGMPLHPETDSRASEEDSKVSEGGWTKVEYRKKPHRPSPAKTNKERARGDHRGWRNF
Sequence of UniProt P10721 (whole entry, unmodified, looked up): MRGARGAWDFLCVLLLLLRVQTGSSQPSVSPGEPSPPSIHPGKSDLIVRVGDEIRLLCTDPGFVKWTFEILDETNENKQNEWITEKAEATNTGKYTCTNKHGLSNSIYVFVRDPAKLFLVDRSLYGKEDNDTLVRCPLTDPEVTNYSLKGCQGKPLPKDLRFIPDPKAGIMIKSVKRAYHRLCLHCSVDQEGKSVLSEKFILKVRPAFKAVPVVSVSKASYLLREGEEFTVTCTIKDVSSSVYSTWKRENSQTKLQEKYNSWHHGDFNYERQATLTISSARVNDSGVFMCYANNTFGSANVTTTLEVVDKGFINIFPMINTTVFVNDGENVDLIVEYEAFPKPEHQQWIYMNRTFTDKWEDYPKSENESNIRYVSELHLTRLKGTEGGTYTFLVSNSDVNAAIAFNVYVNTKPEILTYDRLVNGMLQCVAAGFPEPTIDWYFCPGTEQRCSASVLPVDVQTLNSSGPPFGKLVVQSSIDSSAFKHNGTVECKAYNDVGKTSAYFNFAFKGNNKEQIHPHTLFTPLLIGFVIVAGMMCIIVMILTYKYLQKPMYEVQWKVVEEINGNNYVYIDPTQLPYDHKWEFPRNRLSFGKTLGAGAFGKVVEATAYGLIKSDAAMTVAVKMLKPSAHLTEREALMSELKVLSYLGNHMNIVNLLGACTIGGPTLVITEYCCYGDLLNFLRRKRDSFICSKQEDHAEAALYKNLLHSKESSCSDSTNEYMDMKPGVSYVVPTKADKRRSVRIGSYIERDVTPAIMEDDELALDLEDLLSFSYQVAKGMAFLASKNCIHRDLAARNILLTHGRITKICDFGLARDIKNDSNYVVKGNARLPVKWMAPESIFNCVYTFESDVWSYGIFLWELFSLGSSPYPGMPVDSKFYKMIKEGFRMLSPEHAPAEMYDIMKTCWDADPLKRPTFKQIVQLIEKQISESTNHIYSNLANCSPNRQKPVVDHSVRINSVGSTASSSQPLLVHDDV
Sequence of UniProt P51812 (whole entry, looked up): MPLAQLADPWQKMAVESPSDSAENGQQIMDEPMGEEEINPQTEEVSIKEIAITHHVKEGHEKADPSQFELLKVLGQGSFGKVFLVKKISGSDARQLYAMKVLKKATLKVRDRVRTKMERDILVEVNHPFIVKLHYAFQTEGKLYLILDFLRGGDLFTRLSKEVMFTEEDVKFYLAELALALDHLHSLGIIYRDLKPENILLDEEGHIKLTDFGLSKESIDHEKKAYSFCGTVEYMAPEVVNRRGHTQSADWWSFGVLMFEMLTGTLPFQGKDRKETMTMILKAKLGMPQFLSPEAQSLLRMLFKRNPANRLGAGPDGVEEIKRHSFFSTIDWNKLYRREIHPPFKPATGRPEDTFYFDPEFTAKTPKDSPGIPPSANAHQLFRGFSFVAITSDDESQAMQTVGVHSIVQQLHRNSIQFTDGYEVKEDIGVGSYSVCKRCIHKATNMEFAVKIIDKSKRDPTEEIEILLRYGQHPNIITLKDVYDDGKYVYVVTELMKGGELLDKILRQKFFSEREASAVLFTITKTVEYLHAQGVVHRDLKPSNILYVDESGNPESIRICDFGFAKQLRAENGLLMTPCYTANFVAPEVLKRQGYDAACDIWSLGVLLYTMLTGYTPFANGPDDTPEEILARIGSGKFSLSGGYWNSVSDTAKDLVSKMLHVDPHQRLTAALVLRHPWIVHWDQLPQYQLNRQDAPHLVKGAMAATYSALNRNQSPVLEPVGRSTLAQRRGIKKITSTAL
Sequence of UniProt Q9NQU5 (whole entry, looked up): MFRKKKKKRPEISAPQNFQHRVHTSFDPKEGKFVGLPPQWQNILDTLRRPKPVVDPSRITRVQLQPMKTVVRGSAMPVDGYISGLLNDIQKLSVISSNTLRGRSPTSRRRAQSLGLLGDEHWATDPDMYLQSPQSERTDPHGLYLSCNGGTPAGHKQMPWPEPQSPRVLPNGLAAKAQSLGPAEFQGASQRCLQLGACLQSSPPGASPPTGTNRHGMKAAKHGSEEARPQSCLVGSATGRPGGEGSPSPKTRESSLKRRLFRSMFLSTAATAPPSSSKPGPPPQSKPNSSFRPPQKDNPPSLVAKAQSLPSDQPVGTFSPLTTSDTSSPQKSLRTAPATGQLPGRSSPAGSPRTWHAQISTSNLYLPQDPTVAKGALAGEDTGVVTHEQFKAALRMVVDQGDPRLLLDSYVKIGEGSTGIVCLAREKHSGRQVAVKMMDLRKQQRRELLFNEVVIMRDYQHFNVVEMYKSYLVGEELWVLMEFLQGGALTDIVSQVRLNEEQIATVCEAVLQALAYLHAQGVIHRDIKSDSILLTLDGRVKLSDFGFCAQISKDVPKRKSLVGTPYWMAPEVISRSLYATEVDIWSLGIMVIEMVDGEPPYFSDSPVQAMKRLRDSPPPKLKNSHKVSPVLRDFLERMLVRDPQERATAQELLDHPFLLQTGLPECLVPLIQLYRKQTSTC
Sequence of UniProt Q9H1Y3 (whole entry, looked up): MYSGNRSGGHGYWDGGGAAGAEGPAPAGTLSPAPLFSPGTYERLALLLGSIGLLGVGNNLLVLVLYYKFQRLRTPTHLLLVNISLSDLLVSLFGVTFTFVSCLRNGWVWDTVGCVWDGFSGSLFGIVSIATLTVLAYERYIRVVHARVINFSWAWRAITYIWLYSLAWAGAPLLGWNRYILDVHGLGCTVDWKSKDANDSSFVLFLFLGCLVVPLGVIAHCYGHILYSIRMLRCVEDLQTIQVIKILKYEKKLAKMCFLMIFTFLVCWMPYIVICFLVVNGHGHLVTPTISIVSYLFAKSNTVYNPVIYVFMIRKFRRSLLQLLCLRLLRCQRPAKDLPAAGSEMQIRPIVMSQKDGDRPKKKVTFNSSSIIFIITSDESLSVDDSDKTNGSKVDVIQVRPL
Sequence of UniProt Q14012 (whole entry, looked up): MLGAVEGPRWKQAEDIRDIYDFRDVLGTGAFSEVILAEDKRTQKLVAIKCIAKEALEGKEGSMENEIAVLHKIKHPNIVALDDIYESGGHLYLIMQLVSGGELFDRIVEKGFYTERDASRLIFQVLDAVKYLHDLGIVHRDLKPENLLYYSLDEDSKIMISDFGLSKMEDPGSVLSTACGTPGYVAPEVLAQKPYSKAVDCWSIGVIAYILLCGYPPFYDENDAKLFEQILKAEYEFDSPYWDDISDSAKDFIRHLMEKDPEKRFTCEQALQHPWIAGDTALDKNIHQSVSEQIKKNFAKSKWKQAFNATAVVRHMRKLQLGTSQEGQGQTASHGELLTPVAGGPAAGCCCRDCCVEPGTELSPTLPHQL
Sequence of UniProt Q9NY57 (whole entry, looked up): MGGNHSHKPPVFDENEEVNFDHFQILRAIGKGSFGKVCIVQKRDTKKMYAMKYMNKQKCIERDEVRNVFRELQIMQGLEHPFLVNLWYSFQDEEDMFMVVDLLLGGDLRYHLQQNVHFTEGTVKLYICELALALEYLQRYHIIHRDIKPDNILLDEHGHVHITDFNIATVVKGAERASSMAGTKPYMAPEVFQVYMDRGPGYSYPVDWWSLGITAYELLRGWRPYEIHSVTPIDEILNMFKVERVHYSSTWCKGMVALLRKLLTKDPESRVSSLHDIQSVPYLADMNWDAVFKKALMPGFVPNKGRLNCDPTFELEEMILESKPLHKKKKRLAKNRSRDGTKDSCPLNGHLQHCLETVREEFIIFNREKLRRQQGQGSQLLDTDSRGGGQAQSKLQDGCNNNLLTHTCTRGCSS

Block 1
Compound: NC(N)=NC(=O)c1nc(Cl)c(N2CCCCCC2)nc1N
Read-out: β-arrestin recruitment
Action: agonist
Method: PRESTO-Tango
Concentration: 10 µM
Baseline: untreated
target | fold over basal
Neuropeptide Y receptor type 4 (NPY4R, Homo sapiens, UniProt P50391) | 1.09
D(1A) dopamine receptor (DRD1, Homo sapiens, UniProt P21728) | 0.72
Relaxin-3 receptor 2 (RXFP4, Homo sapiens, UniProt Q8TDU9) | 1.36
Glucose-dependent insulinotropic receptor (GPR119, Homo sapiens, UniProt Q8TDV5) | 0.65
G-protein coupled receptor 61 (GPR61, Homo sapiens, UniProt Q9BZJ8) | 0.62
Metabotropic glutamate receptor 1 (GRM1, Homo sapiens, UniProt Q13255) | 1.21 fold
Probable G-protein coupled receptor 173 (GPR173, Homo sapiens, UniProt Q9NS66) | 0.94
Opsin-3 (OPN3, Homo sapiens, UniProt Q9H1Y3) | 1.01
Cannabinoid receptor 2 (CNR2, Homo sapiens, UniProt P34972) | 0.69
Histamine H3 receptor (HRH3, Homo sapiens, UniProt Q9Y5N1) | 0.7 fold
Glucagon receptor (GCGR, Homo sapiens, UniProt P47871) | 0.84 fold
5-hydroxytryptamine receptor 5A (HTR5A, Homo sapiens, UniProt P47898) | 1.25
G-protein coupled receptor 12 (GPR12, Homo sapiens, UniProt P47775) | 0.91
Follicle-stimulating hormone receptor (FSHR, Homo sapiens, UniProt P23945) | 0.96 fold
Cholecystokinin receptor type A (CCKAR, Homo sapiens, UniProt P32238) | 1.01
Adhesion G-protein coupled receptor D1 (ADGRD1, Homo sapiens, UniProt Q6QNK2) | 1.82

Block 2
Target: Calcium/calmodulin-dependent protein kinase type II subunit alpha (CAMK2A, Homo sapiens, UniProt Q9UQM7)
Sequence of UniProt Q9UQM7 (whole entry, looked up): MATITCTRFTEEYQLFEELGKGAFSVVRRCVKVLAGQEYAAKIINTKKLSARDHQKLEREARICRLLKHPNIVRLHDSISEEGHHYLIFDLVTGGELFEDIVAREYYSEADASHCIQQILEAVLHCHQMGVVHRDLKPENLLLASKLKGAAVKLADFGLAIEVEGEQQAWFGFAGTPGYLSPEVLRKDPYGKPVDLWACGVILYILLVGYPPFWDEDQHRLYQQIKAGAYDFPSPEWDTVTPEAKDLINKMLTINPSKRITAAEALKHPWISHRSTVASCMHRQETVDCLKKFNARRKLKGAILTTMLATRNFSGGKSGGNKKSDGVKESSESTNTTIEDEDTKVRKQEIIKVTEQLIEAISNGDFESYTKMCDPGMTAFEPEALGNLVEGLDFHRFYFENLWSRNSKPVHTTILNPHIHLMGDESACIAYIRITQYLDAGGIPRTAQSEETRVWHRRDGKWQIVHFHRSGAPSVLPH
Read-out: enzyme activity
Action: inhibitor
Concentration: 10 µM
Compound | inhibition
COC(=O)Cc1ccc(O)cc1 | -18%
CCC1(c2ccc(O)cc2)NC(=O)N(C)C1=O (stereo not drawn) | -18%
Cc1nc(C(=O)NCC(=O)O)c(O)c2ccc(Oc3ccccc3)cc12 | -3%
CC(C)=CCC[C@@](C)(O)[C@H]1CC[C@]2(C)[C@@H]1[C@H](O)C[C@@H]1[C@@]3(C)CC[C@H](O[C@@H]4O[C@H](CO)[C@@H](O)[C@H](O)[C@H]4O[C@@H]4O[C@H](CO)[C@@H](O)[C@H](O)[C@H]4O)C(C)(C)[C@@H]3CC[C@]12C | -32%
C1CNCCNCCNCCN1 | 0%
COc1cccc(CCC(=O)O)c1 | 2%
C[C@@H]1CCCC2=CC(=O)[C@@H]3[C@@H](C3(C)C)[C@]21C | -2%
CC(C)C[C@H](N)C(=O)N[C@@H](C)C(=O)O | 11%
COc1cc([C@@H]2c3cc4c(cc3[C@H](O)[C@H]3COC(=O)[C@@H]23)OCO4)cc(OC)c1OC | -1%
COc1ccc(C=O)c(O)c1 | -21%

Block 3
Structure (SMILES): N#Cc1ccc(Nc2ccc3[nH]c(=O)[nH]c3c2)c(Cl)c1
Concentration: 1 µM
target | assay | remaining binding [%]
Mast/stem cell growth factor receptor Kit (KIT, Homo sapiens, UniProt P10721, V559D) | cell-free assay, competition with immobilised ligand | 100
Phosphatidylinositol 4-phosphate 5-kinase type-1 gamma (PIP5K1C, Homo sapiens, UniProt O60331) | cell-free assay, competition with immobilised ligand | 67
Cyclin-dependent kinase-like 5 (CDKL5, Homo sapiens, UniProt O76039) | binding, competition with immobilised ligand | 100
Calcium/calmodulin-dependent protein kinase type II subunit gamma (CAMK2G, Homo sapiens, UniProt Q13555) | cell-free assay, competition with immobilised ligand | 78
STE20-like serine/threonine-protein kinase (SLK, Homo sapiens, UniProt Q9H2G2) | cell-free assay, competition with immobilised ligand | 100
Mitogen-activated protein kinase 1 (MAPK1, Homo sapiens, UniProt P28482) | cell-free assay, competition with immobilised ligand | 100
Serine/threonine-protein kinase MRCK gamma (CDC42BPG, Homo sapiens, UniProt Q6DT37) | competition binding | 100
5'-AMP-activated protein kinase catalytic subunit alpha-1 (PRKAA1, Homo sapiens, UniProt Q13131) | cell-free assay, competition with immobilised ligand | 100
Platelet-derived growth factor receptor alpha (PDGFRA, Homo sapiens, UniProt P16234) | cell-free assay, competition with immobilised ligand | 100
Ribosomal protein S6 kinase alpha-6, N-terminal kinase domain (RPS6KA6, Homo sapiens, UniProt Q9UK32) | cell-free assay, competition with immobilised ligand | 84
Mitogen-activated protein kinase kinase kinase 20 (MAP3K20, Homo sapiens, UniProt Q9NYL2) | cell-free assay, competition with immobilised ligand | 100
Serine/threonine-protein kinase tousled-like 2 (TLK2, Homo sapiens, UniProt Q86UE8) | cell-free assay, competition with immobilised ligand | 96
Leucine-rich repeat serine/threonine-protein kinase 2 (LRRK2, Homo sapiens, UniProt Q5S007) | cell-free assay, competition with immobilised ligand | 96
Serine/threonine-protein kinase 32B (STK32B, Homo sapiens, UniProt Q9NY57) | cell-free assay, competition with immobilised ligand | 92
Transient receptor potential cation channel subfamily M member 6 (TRPM6, Homo sapiens, UniProt Q9BX84) | cell-free assay, competition with immobilised ligand | 100
Insulin receptor (INSR, Homo sapiens, UniProt P06213) | cell-free assay, competition with immobilised ligand | 95
Mast/stem cell growth factor receptor Kit, autoinhibited (KIT, Homo sapiens, UniProt P10721) | cell-free assay, competition with immobilised ligand | 100
Dual specificity tyrosine-phosphorylation-regulated kinase 2 (DYRK2, Homo sapiens, UniProt Q92630) | cell-free assay, competition with immobilised ligand | 85
Serine/threonine-protein kinase MARK1 (MARK1, Homo sapiens, UniProt Q9P0L2) | cell-free assay, competition with immobilised ligand | 90
Mitogen-activated protein kinase 8 (MAPK8, Homo sapiens, UniProt P45983) | cell-free assay, competition with immobilised ligand | 98
Tyrosine-protein kinase ABL1, non-phosphorylated (ABL1, Homo sapiens, UniProt P00519, F317I) | binding, competition with immobilised ligand | 92
Cyclin-dependent kinase 18 (CDK18, Homo sapiens, UniProt Q07002) | cell-free assay, competition with immobilised ligand | 100
Serine/threonine-protein kinase PLK4 (PLK4, Homo sapiens, UniProt O00444) | cell-free assay, competition with immobilised ligand | 87
Mitogen-activated protein kinase kinase kinase 12 (MAP3K12, Homo sapiens, UniProt Q12852) | cell-free assay, competition with immobilised ligand | 100
ALK tyrosine kinase receptor (ALK, Homo sapiens, UniProt Q9UM73, L1196M) | cell-free assay, competition with immobilised ligand | 100

Block 4
SMILES: O=c1c(-c2ccc(F)cc2)c(-c2ccncc2)[nH]n1-c1ccc(Cl)cc1
Read-out: enzyme activity
Action: inhibitor
Concentration: 0.5 µM
Baseline: control
target | remaining activity
Protein kinase C zeta type (PRKCZ, Homo sapiens, UniProt Q05513) | 99%
Casein kinase I isoform epsilon (CSNK1E, Homo sapiens, UniProt P49674) | 35%
Tyrosine-protein kinase receptor TYRO3 (TYRO3, Homo sapiens, UniProt Q06418) | 105%
Dual specificity protein kinase CLK1 (CLK1, Homo sapiens, UniProt P49759) | 97%
Calcium/calmodulin-dependent protein kinase type 1 (CAMK1, Homo sapiens, UniProt Q14012) | 94.4%
Ephrin type-A receptor 2 (EPHA2, Homo sapiens, UniProt P29317) | 101%
Vascular endothelial growth factor receptor 1 (FLT1, Homo sapiens, UniProt P17948) | 81.3%
Tyrosine-protein kinase Tec (TEC, Homo sapiens, UniProt P42680) | 112%
Ephrin type-A receptor 6 (EPHA6, Homo sapiens, UniProt Q9UF33) | 57%
Protein kinase C theta type (PRKCQ, Homo sapiens, UniProt Q04759) | 119%
Cyclin-dependent kinase 2, with cyclin E (CDK2, Homo sapiens, UniProt P24941) | 89.1%
Calcium/calmodulin-dependent protein kinase kinase 1 (CAMKK1, Homo sapiens, UniProt Q8N5S9) | 98.5%
Casein kinase I isoform delta (CSNK1D, Homo sapiens, UniProt P48730) | 26.7%
Muscle, skeletal receptor tyrosine-protein kinase (MUSK, Homo sapiens, UniProt O15146) | 102%
Mitogen-activated protein kinase kinase kinase 20 (MAP3K20, Homo sapiens, UniProt Q9NYL2) | 91.2%
Serine/threonine-protein kinase SIK2 (SIK2, Homo sapiens, UniProt Q9H0K1) | 101%
Serine/threonine-protein kinase Sgk2 (SGK2, Homo sapiens, UniProt Q9HBY8) | 94.3%
Dual specificity protein kinase CLK2 (CLK2, Homo sapiens, UniProt P49760) | 99%
Insulin-like growth factor 1 receptor (IGF1R, Homo sapiens, UniProt P08069) | 92.8%
Tyrosine-protein kinase JAK1 (JAK1, Homo sapiens, UniProt P23458) | 103%
SRSF protein kinase 1 (SRPK1, Homo sapiens, UniProt Q96SB4) | 97.9%
Serine/threonine-protein kinase PAK 6 (PAK6, Homo sapiens, UniProt Q9NQU5) | 73.5%
Serine/threonine-protein kinase PAK 1 (PAK1, Homo sapiens, UniProt Q13153) | 92.3%
Ribosomal protein S6 kinase alpha-3 (RPS6KA3, Homo sapiens, UniProt P51812) | 94.3%

Excerpt of the above (block 4):
target | remaining activity
Tyrosine-protein kinase receptor TYRO3 (TYRO3, Homo sapiens, UniProt Q06418) | 105%
Calcium/calmodulin-dependent protein kinase kinase 1 (CAMKK1, Homo sapiens, UniProt Q8N5S9) | 98.5%
Insulin-like growth factor 1 receptor (IGF1R, Homo sapiens, UniProt P08069) | 92.8%
Protein kinase C theta type (PRKCQ, Homo sapiens, UniProt Q04759) | 119%
Ephrin type-A receptor 6 (EPHA6, Homo sapiens, UniProt Q9UF33) | 57%
